{"data": "Assay results gathered from unrelated publications", "note": "A part holds a random share of what one study measured.", "sequence of UniProt P93024 (whole entry, looked up)": "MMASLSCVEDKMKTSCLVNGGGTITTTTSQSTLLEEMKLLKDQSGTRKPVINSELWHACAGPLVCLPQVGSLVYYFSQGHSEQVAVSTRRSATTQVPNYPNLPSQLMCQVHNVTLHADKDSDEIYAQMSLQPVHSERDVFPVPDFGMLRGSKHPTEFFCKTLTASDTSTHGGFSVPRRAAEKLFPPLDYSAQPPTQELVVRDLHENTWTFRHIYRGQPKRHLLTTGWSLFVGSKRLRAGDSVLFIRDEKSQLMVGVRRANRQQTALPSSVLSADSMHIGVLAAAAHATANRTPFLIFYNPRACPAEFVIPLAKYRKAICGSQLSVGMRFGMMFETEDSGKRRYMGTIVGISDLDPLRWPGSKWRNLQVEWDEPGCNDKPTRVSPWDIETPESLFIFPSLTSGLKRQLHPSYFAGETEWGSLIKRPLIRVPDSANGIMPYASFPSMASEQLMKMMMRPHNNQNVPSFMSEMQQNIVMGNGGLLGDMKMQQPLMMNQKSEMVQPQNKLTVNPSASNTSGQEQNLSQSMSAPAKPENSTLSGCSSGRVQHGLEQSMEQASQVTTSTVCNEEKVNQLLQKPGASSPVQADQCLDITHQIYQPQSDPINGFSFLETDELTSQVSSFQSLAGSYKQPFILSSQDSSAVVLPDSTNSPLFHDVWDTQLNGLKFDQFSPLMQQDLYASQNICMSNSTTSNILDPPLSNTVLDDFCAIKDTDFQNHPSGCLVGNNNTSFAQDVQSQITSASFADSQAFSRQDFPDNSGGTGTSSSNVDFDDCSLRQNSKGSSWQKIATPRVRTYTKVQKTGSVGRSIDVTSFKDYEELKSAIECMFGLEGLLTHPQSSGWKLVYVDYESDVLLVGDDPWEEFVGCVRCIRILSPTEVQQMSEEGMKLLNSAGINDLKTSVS", "sequence of UniProt P78368 (whole entry, looked up)": "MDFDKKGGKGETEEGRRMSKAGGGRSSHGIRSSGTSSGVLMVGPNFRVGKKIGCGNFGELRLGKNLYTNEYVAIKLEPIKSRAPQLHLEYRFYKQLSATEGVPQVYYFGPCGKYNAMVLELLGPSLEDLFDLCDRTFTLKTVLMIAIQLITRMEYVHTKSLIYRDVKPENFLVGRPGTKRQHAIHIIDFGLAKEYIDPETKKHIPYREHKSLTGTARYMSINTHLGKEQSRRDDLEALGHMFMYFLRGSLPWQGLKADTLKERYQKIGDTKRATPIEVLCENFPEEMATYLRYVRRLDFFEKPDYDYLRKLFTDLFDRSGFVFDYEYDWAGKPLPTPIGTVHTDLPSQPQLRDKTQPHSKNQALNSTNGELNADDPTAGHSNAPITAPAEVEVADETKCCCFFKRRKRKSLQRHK", "sequence of UniProt Q15349 (whole entry, looked up)": "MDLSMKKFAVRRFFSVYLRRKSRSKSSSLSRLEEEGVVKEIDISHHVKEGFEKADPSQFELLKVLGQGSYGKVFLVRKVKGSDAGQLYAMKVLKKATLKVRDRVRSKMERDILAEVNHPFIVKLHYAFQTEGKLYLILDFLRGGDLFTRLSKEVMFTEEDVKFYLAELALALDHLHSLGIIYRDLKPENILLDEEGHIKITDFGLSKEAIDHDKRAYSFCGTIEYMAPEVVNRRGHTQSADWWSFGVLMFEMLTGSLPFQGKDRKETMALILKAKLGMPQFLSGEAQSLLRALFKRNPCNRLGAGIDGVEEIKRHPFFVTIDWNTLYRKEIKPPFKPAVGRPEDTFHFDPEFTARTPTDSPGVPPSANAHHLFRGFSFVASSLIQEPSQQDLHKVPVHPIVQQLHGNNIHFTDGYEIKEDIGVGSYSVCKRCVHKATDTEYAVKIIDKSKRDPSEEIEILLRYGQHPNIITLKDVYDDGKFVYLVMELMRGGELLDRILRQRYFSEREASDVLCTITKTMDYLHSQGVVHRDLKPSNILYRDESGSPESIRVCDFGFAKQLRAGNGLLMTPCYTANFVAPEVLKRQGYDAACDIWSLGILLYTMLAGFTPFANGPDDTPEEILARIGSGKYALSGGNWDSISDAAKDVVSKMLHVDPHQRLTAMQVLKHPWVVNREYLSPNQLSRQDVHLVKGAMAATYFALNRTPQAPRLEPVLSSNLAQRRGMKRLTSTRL", "sequence of UniProt Q8L7G0 (whole entry, looked up)": "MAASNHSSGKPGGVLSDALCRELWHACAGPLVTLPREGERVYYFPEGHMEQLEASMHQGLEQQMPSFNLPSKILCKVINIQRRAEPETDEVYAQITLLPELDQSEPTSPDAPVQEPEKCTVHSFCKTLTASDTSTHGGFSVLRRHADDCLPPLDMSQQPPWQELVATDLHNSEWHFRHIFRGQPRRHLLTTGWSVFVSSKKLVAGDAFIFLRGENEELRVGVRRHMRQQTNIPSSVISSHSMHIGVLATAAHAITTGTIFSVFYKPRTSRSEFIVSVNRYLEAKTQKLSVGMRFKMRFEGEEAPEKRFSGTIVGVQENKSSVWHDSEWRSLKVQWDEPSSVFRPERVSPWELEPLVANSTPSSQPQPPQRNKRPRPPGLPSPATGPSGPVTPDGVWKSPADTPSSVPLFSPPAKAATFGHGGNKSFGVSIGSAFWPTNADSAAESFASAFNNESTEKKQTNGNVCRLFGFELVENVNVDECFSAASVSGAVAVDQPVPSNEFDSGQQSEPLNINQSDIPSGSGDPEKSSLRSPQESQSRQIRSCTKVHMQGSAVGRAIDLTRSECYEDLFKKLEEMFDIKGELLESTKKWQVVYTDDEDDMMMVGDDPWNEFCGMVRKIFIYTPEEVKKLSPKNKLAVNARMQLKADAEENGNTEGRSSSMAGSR", "sequence of UniProt Q8WTQ7 (whole entry, looked up)": "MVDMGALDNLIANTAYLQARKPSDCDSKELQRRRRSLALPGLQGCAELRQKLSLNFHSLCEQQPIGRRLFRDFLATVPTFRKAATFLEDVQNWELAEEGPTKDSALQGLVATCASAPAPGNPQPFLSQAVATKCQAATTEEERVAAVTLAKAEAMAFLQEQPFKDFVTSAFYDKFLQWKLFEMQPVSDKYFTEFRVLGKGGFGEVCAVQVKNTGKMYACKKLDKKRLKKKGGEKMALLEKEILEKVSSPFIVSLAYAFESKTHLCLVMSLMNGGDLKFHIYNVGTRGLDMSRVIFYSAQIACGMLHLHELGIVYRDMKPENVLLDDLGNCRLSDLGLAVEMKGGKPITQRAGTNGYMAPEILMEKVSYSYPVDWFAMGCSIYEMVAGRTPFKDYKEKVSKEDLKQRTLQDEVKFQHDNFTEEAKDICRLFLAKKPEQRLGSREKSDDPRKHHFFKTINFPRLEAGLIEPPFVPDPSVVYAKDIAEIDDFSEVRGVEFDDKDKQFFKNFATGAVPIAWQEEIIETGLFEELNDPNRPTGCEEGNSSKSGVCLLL", "sequence of UniProt Q9FX25 (whole entry, looked up)": "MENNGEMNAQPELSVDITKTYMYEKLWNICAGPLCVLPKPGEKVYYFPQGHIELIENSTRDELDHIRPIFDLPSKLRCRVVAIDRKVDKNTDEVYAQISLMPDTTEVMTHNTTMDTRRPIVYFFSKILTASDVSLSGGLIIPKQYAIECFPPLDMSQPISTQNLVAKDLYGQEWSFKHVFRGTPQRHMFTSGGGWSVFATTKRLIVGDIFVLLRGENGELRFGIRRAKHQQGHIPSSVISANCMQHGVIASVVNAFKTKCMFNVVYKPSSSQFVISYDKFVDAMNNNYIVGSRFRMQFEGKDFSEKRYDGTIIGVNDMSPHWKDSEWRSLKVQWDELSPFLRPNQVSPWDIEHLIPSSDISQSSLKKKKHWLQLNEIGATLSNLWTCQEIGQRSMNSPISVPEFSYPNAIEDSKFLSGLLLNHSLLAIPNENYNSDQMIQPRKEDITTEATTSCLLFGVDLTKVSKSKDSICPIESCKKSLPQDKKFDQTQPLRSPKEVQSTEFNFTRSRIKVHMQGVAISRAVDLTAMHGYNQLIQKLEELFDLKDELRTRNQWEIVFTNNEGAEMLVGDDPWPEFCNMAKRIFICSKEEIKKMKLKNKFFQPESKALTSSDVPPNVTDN", "sequence of UniProt Q9HC98 (whole entry, looked up)": "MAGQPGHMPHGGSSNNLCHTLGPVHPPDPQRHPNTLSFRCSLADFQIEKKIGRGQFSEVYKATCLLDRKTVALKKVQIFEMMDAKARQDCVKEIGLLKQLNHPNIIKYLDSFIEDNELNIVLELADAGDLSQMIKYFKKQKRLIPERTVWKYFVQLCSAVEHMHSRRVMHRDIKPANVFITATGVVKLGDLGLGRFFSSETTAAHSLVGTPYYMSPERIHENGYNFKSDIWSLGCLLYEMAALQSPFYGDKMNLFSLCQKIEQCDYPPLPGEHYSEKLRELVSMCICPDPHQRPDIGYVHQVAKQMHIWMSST"}
{"data": "Series 1", "SMILES": "COc1cc2ncnc(Nc3ccc(OCc4ccccc4)cc3)c2cc1OC", "effect on": "enzyme activity", "mode": "inhibitor", "concentration": "0.5 µM", "reference": "control"}
{"target": "FGFR3 (Homo sapiens, UniProt P22607)", "remaining activity [%]": 102}
{"target": "MERTK (Homo sapiens, UniProt Q12866)", "remaining activity [%]": 19.5}
{"target": "MAPK3 (Homo sapiens, UniProt P27361)", "remaining activity [%]": 98.4}
{"target": "NEK6 (Homo sapiens, UniProt Q9HC98)", "remaining activity [%]": 97.6}
{"target": "MAP2K2 (Homo sapiens, UniProt P36507)", "remaining activity [%]": 98.5}
{"target": "ACVR1B (Homo sapiens, UniProt P36896)", "remaining activity [%]": 102}
{"target": "ABL2 (Homo sapiens, UniProt P42684)", "remaining activity [%]": 101}
{"target": "LCK (Homo sapiens, UniProt P06239)", "remaining activity [%]": 42.2}
{"target": "CSNK1G2 (Homo sapiens, UniProt P78368)", "remaining activity [%]": 98.4}
{"target": "MST1R (Homo sapiens, UniProt Q04912)", "remaining activity [%]": 106}
{"target": "TEK (Homo sapiens, UniProt Q02763)", "remaining activity [%]": 97.9}
{"target": "RPS6KA2 (Homo sapiens, UniProt Q15349)", "remaining activity [%]": 100}
{"target": "GRK7 (Homo sapiens, UniProt Q8WTQ7)", "remaining activity [%]": 101}
{"data": "Series 2", "cell line": "normal-adjacent organoid sample G", "technique": "CellTiter-Glo", "concentration": "1 µM", "setting": "replicate mean", "reference": "DMSO"}
{"SMILES": "O=C(Nc1cccnn1)N1CCC(=Cc2cccc(Oc3ccc(C(F)(F)F)cn3)c2)CC1", "viability": "99%"}
{"SMILES": "C[C@H](c1ccc(F)cc1)N(Cc1cccc(C(=O)O)c1)C(=O)c1cnc2ccccc2c1", "viability": "105%"}
{"SMILES": "Cn1nc(C(F)(F)F)cc1-c1cnc(N2CCc3cc(S(=O)(=O)Nc4c(F)cc(Cl)cc4F)cc(N4CCCC4=O)c32)nc1", "viability": "105%"}
{"SMILES": "CCS(=O)(=O)c1cc2cc(C[C@](O)(CC(C)(C)c3ccc(F)cc3C(N)=O)C(F)(F)F)[nH]c2cn1", "viability": "93.4%"}
{"SMILES": "CC(C)(O)c1cncc(-c2nc3ccc(F)cc3n2C2CC2)c1", "viability": "109%"}
{"SMILES": "CNCc1ccccc1-c1csc([C@@H](C)Nc2nc(C)nc3cc(OC)c(OC)cc23)c1", "viability": "72.4%"}
{"SMILES": "O=C(O)[C@@H]1[C@@H](Cn2nnc3ccccc3c2=O)CC[C@H]1C(=O)c1ccc(OCCC2CCOCC2)cc1", "viability": "108%"}
{"SMILES": "CCOCCn1cc(C(=O)Nc2ccc(-n3nc(-c4cccnc4)cc3C(F)(F)F)cn2)ccc1=O", "viability": "97.4%"}
{"SMILES": "C[C@H](c1ccc(F)cc1)N(Cc1ccc(Cl)c(C(=O)O)c1)C(=O)c1cnc2ccccc2c1", "viability": "109%"}
{"SMILES": "C[C@@H]1CN(c2cc(-c3nn(C)c4ccc(OC5(C)CC5)cc34)ncn2)C[C@H](C)O1", "viability": "103%"}
{"SMILES": "O=C(NC[C@@H]1[C@H]2CN(C(=O)OCc3cc(C(F)(F)F)cc(C(F)(F)F)c3)C[C@@H]12)c1ccc2[nH]nnc2c1", "viability": "101%"}
{"SMILES": "C[C@@]1(Cc2ccc(C#N)cc2)C(=O)N(c2cc(Cl)cc(Cl)c2)c2ncc(C(=O)NC3(c4nc(C5CCC5)no4)CC3)n21", "viability": "121%"}
{"SMILES": "CN(c1ccnc(CNc2nc(Nc3ccc4c(c3)CC(=O)N4)ncc2C(F)(F)F)n1)S(C)(=O)=O", "viability": "114%"}
{"SMILES": "Cc1cc(NC(=O)c2cccc(S(F)(F)(F)(F)F)c2)cc(-n2ccn3nc(-c4cccnc4)cc23)c1", "viability": "85.9%"}
{"SMILES": "CCCCN(CCCC)C(=O)CN1C[C@@H](c2cc(OC)c3c(c2)OCO3)[C@H](C(=O)O)[C@H]1CC(C)(C)CCC", "viability": "110%"}
{"data": "Series 3", "target": "Ras GTPase-activating protein-binding protein 1, full length (G3BP1, Homo sapiens, UniProt Q13283)", "technique": "RNA Bind-n-Seq", "molecule type": "RNA", "sample": "in vitro", "concentration": "200 nM", "setting": "whole 134-nt RNA, ends assumed", "together with": "150 mM LiCl", "reference": "input library", "direction": "higher = stronger binding", "library": "7-deaza-guanosine replaces G", "constant ends, left off below": "GGGAGUUCUACAGUCCGACGAUC … UGGAAUUCUCGGGUGUCAAGG", "sequence of UniProt Q13283 (whole entry, looked up)": "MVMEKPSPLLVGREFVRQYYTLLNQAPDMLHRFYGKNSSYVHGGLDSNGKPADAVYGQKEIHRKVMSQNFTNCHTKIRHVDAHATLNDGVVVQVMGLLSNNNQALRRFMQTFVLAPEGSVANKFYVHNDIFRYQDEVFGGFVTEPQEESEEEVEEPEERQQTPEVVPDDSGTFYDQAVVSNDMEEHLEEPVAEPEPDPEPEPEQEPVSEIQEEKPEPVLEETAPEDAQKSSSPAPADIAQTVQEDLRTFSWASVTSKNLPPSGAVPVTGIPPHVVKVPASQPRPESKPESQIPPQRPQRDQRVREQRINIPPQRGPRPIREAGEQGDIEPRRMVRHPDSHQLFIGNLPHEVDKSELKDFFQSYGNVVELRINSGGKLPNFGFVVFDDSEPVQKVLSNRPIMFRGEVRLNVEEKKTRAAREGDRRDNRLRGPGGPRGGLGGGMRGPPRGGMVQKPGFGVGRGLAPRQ"}
{"Sequence": "CAAGUCCUGUGCUACACAUCGUAUGUACCGAAUCGGGAAAAGGAAAAGGAAAAGGAAAGUAUUAUGUUACGCCGUUCGGAUCUGCACUUC", "log2 enrichment": -0.705}
{"Sequence": "CACAGACAACACGCACCCACACAGACACAGAGGGAAGGGGUUGGGAUGGGGACAGGGUGCACAGCAGGGCAAAGUAGGACCCCAGCCCCU", "log2 enrichment": 0.125}
{"Sequence": "CUCAAGUCCUGUGCUACACAUCGUAUGUACCGAAUCGGUUUGGAAAAAGGAGGAAAGUAUUAUGUUACGCCGUUCGGAUCUGCACUUCCA", "log2 enrichment": 0.187}
{"Sequence": "UGGGAGGUGGAUUUUGUUUAUCUUUUUAGCUCAUUUCCAGGGGUGGGAAUUUUUUUUUAAUAUGUGUCAUGAAUAAAGUUGUUUUUGAAA", "log2 enrichment": -0.304}
{"Sequence": "UCAAGUCCUGUGCUACACAUCGUAUGUACCGAAUCGGGCCCGGCCCGGGGCCCGGAAAGUAUUAUGUUACGCCGUUCGGAUCUGCACUUC", "log2 enrichment": -0.229}
{"Sequence": "AAGUCCUGUGCUACACAUCGUAUGUACCGAAUCGGGUUUUGGGUUUUGGGGUUUUGGAAAGUAUUAUGUUACGCCGUUCGGAUCUGCACU", "log2 enrichment": 0.194}
{"Sequence": "CUCAAGUCCUGUGCUACACAUCGUAUGUACCGAAUCGGAAAGGAAAGGGAAAGGAAAGUAUUAUGUUACGCCGUUCGGAUCUGCACUUCC", "log2 enrichment": 0.0082}
{"Sequence": "CACAGACAACACGCACCCACACAGACACAGAGGGAAGGGGUUGGGAUGGGGACAGGGUGCACAGCAGGGCGGGGUAGGACCCCAGCCCCU", "log2 enrichment": -0.179}
{"data": "Series 4", "Substance": "IAA27 (Arabidopsis thaliana, UniProt Q9ZSY8)", "technique": "two-hybrid", "direction": "higher = firmer interaction", "sequence of UniProt Q9ZSY8 (whole entry, looked up)": "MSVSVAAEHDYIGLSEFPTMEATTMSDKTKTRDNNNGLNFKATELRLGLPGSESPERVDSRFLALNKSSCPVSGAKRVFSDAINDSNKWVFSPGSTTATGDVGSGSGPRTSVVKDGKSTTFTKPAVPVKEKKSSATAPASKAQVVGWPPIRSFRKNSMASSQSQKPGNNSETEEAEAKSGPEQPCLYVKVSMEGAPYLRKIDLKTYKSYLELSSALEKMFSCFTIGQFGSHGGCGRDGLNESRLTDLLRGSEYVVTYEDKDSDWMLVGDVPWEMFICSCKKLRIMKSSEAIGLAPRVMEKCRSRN"}
{"partner": "ARF1 538-665 (Arabidopsis thaliana, UniProt Q8L7G0)", "reference": "out of 4 tests", "positive tests": 0}
{"partner": "ARF13 (Arabidopsis thaliana, UniProt Q9FX25)", "reference": "out of 2 tests", "positive tests": 0}
{"partner": "ARF5 788-902 (Arabidopsis thaliana, UniProt P93024)", "reference": "out of 2 tests", "positive tests": 2}
{"partner": "ETT (Arabidopsis thaliana, UniProt O23661)", "reference": "out of 2 tests", "positive tests": 0}
{"partner": "IAA33 (Arabidopsis thaliana, UniProt Q9FKM7)", "reference": "out of 4 tests", "positive tests": 2}
{"note": "Some of these lines once more (series 2):"}
{"SMILES": "C[C@@H]1CN(c2cc(-c3nn(C)c4ccc(OC5(C)CC5)cc34)ncn2)C[C@H](C)O1", "viability": "103%"}
{"SMILES": "O=C(NC[C@@H]1[C@H]2CN(C(=O)OCc3cc(C(F)(F)F)cc(C(F)(F)F)c3)C[C@@H]12)c1ccc2[nH]nnc2c1", "viability": "101%"}
{"SMILES": "C[C@@]1(Cc2ccc(C#N)cc2)C(=O)N(c2cc(Cl)cc(Cl)c2)c2ncc(C(=O)NC3(c4nc(C5CCC5)no4)CC3)n21", "viability": "121%"}
{"SMILES": "CN(c1ccnc(CNc2nc(Nc3ccc4c(c3)CC(=O)N4)ncc2C(F)(F)F)n1)S(C)(=O)=O", "viability": "114%"}
{"SMILES": "Cc1cc(NC(=O)c2cccc(S(F)(F)(F)(F)F)c2)cc(-n2ccn3nc(-c4cccnc4)cc23)c1", "viability": "85.9%"}
{"SMILES": "CCCCN(CCCC)C(=O)CN1C[C@@H](c2cc(OC)c3c(c2)OCO3)[C@H](C(=O)O)[C@H]1CC(C)(C)CCC", "viability": "110%"}
